Assay results collected from several papers.
“And” joins repeats or separate records; there may be more than shown. Numbers after ± are the reported error.

Structure (SMILES) | tested on | test | system | conditions | scale | measurement | result
C[n+]1ccc(/C=N/NC(=O)c2cccc(C(=O)N/N=C/c3cc[n+](C)c4ccccc34)n2)c2ccccc21 | 22CTA telomeric G4-DNA antiparallel | FRET melting |  | 1 µM, K10 buffer, DNA 0.2 µM |  | ΔTm | 20.9 ± 0.1 °C
CCC(=O)N(C)c1ccc(Cl)c(Cl)c1 | somatostatin receptor, non-selective | radioligand binding |  | 10 µM |  | inhibition | < 10%
OC[C@H]1O[C@@H]2O[C@H]3[C@H](O)[C@@H](O)[C@@H](O[C@H]4[C@H](O)[C@@H](O)[C@@H](O[C@H]5[C@H](O)[C@@H](O)[C@@H](O[C@H]6[C@H](O)[C@@H](O)[C@@H](O[C@H]7[C@H](O)[C@@H](O)[C@@H](O[C@H]1[C@H](O)[C@H]2O)O[C@@H]7CO)O[C@@H]6CO)O[C@@H]5CO)O[C@@H]4CO)O[C@@H]3CO | LuxR | Escherichia coli sensor |  | 1 µM | higher = stronger induction | bioluminescence induction | 714 ± 60 RLU
CC(=O)c1cnc(N)nc1N1CC[C@H]1c1nn2ccc(Cl)c2c(=O)n1-c1ccccc1 | PI3Kβ | KiNativ | dog white blood cell lysate | 1 µM |  | binding | 78.3%
C/C1=C\CC/C(C)=C/CC(C)(C)/C=C/C1 | sodium channels | sodium current, inhibitor, whole-cell patch clamp | mouse DRG neurons | 100 µM, 5 min |  | inhibition | 10 ± 5%
COc1c(Cl)cccc1Nc1c(-c2ccncc2C#C[C@@]2(C)CCCN2C(=O)/C=C/CN(C)C)[nH]c2c1C(=O)NCC2 | DUSP4 human | cysteine engagement, chemoproteomic profiling, measured: DUSP4 Cys12 peptide | NCI-H2073 | 10 µM, 2 h | reference: DMSO | log2 fold change | 1.47
O=C(N/N=C/c1ccc(C[n+]2ccccc2)cc1)c1cc(C(=O)N/N=C/c2ccc(C[n+]3ccccc3)cc2)ncn1 | 22CTA telomeric G4-DNA antiparallel | FRET melting |  | 1 µM, K10 buffer, DNA 0.2 µM |  | ΔTm | 2.6 ± 0.6 °C
N#CCNC(=O)c1ccc([C@H]2[C@@H](F)[C@@H](F)C[C@@H](F)[C@H]2F)cc1 |  | liver microsome stability | dog liver microsomes | 1 µM |  | hepatic clearance | 11 mL/min/kg
COC1CN([C@H]2CC[C@H]([C@@]3(C)Oc4c(Cl)cc(C(=O)NCc5c(SC)cc(C)[nH]c5=O)c(C)c4O3)CC2)C1 |  | RNA-seq, measured: RTN2 | human, whole blood | dose not given, 24 h | reference: pretreatment baseline | log2 fold change | 1
C[n+]1ccc(/C=N/NC(=O)c2ccc3ccc4ccc(C(=O)N/N=C/c5cc[n+](C)cc5)nc4c3n2)cc1 | 22CTA telomeric G4-DNA antiparallel | FRET melting |  | 1 µM, K10 buffer, DNA 0.2 µM, with: ds26 10 µM |  | ΔTm | 10 ± 0.3 °C
CC(C)Oc1cc(Cl)ccc1CNc1cc(-c2ccccc2)nc2ncnn12 | endogenous β-adrenergic receptors | cAMP level, cAMP GloSensor | mock-transfected cells | 1 nM, with: isoprenaline 30 nM | higher = more cAMP | cAMP luminescence | 28900 a.u. and 24700 a.u. and 22300 a.u.
C[n+]1cc(/C=N/NC(=O)c2cncc(C(=O)N/N=C/c3cc4ccccc4[n+](C)c3)n2)cc2ccccc21 | 22CTA telomeric G4-DNA antiparallel | FRET melting |  | 1 µM, K10 buffer, DNA 0.2 µM |  | ΔTm | 9 ± 0.1 °C
C=CC(=O)Nc1cccc(Cn2ncc3cnc(Nc4cnn(CCOC)c4)nc32)c1 | YANK1 human | binding, KINOMEscan |  | 100 nM | lower = stronger binding | percent of control | 84%
c1ccc(CSc2nc3ccccc3cc2CNCCC2CCN(C3CCCC3)CC2)cc1 | electron transport chain | proton pumping, ACMA quenching | Pseudomonas aeruginosa inverted membrane vesicles | 32 µg/mL, with: NADH |  | inhibition | 77%
C=CC(=O)N1[C@@H](c2ccc3c(c2)OCO3)c2[nH]c3ccccc3c2C[C@H]1C(=O)N1CCN(C)CC1 | human cyclin E1 wild type-3xFLAG:CDK2 | co-IP with TMT proteomics, measured: SNRNP200 |  | concentration not given, O75643 | reference: wild type DMSO | relative co-enrichment | 95%
c1ccc(-c2n[nH]cc2-c2ccnc3ccccc23)nc1 | STE11 (Candida albicans) | kinase binding, MIB/MS competition | Candida albicans lysate | 10 µM | reference: DMSO | log2 fold change | -0.28
O=C(NCc1cccc(Cl)c1)c1ccc(C2CCCCC2)cc1 |  | liver microsome stability | cynomolgus liver microsomes | 1 µM |  | hepatic clearance | 37 mL/min/kg
O=c1c(Oc2ccccc2)c(C(F)(F)F)oc2c(O)c(O)ccc12 | ROC1-CUL1 E3 subcomplex | Cdc34-ubiquitin discharge |  | 100 µM | reference: input | Cdc34b-ubiquitin remaining | 21%
O=C(N/N=C/c1cc[n+](Cc2ccccc2)c2ccccc12)c1cccc(C(=O)N/N=C/c2cc[n+](Cc3ccccc3)c3ccccc23)n1 | 22CTA telomeric G4-DNA antiparallel | FRET melting |  | 1 µM, K10 buffer, DNA 0.2 µM, with: ds26 10 µM |  | ΔTm | 16.4 ± 0.4 °C
Nc1ncc(-c2cc(-c3cnn(CC(F)(F)F)c3)ncc2F)nc1C(=O)NC1CNCC(F)C1 (stereo not shown) | ZAP70 | KINOMEscan |  | 1 µM | reference: DMSO control | remaining binding | 74%
O=C(N/N=C/c1cc[n+](Cc2ccccc2)c2ccccc12)N/N=C/c1cc[n+](Cc2ccccc2)c2ccccc12 | 22CTA telomeric G4-DNA antiparallel | FRET melting |  | 1 µM, K10 buffer, DNA 0.2 µM, with: ds26 10 µM |  | ΔTm | 9.1 ± 0.6 °C
N#Cc1ccc(-c2cnc(C(=O)CCCCCCc3ccccc3)o2)nc1 | fatty-acid amide hydrolase (mouse) | measured: AEA, OEA, PEA levels | mouse, brain | i.p., dose not given |  | duration of inhibition | > 6 h

Some of these lines once more:
Structure (SMILES) | tested on | test | system | conditions | scale | measurement | result
C[n+]1ccc(/C=N/NC(=O)c2ccc3ccc4ccc(C(=O)N/N=C/c5cc[n+](C)cc5)nc4c3n2)cc1 | 22CTA telomeric G4-DNA antiparallel | FRET melting |  | 1 µM, K10 buffer, DNA 0.2 µM, with: ds26 10 µM |  | ΔTm | 10 ± 0.3 °C
CC(C)Oc1cc(Cl)ccc1CNc1cc(-c2ccccc2)nc2ncnn12 | endogenous β-adrenergic receptors | cAMP level, cAMP GloSensor | mock-transfected cells | 1 nM, with: isoprenaline 30 nM | higher = more cAMP | cAMP luminescence | 28900 a.u. and 24700 a.u. and 22300 a.u.
C[n+]1cc(/C=N/NC(=O)c2cncc(C(=O)N/N=C/c3cc4ccccc4[n+](C)c3)n2)cc2ccccc21 | 22CTA telomeric G4-DNA antiparallel | FRET melting |  | 1 µM, K10 buffer, DNA 0.2 µM |  | ΔTm | 9 ± 0.1 °C
